Experimental data gathered from unrelated publications.
Numbered parts are unrelated; each lists some results of a single study. Changes are numbered by the printed parent chain.

Series 1 — target: CCNB2, cyclin fold, Cln2 fusion (human); method: yeast growth competition, sequencing; sample: yeast; setting: strong parent motif; baseline: not given; direction: higher = stronger binding; quantity: normalised enrichment score
Parent: BRCA2 docking peptide (human); PSIKRNLLNEFDR; partner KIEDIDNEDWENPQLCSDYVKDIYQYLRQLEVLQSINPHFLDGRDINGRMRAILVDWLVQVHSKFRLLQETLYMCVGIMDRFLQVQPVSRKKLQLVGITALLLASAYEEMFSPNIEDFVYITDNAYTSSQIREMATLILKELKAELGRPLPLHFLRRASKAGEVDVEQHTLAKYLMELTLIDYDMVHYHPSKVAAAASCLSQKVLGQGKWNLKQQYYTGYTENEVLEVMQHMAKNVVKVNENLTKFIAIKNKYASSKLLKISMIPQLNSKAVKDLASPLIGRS
D12G: 2.67
N6F: 0.935
N6V: 0.233
L7K: 0.246
D12M: 3.6
P1M: 3.09
L7W: -0.0952
N6S: 1.8
P1S: 3.64
N9M: 3.55
N6C: 1.39
I3Q: -0.199
R5E: -0.163
N9K: 3.73
D12F: 0.922
S2R: 2.49

Series 2 — method: DHFR PCA, deep sequencing; sample: yeast; with: (+)-ABA 1.4 µM; baseline: wild-type fitted maximum; direction: higher = stronger binding; quantity: relative binding score
Target: ABI1, truncated, D143A, DHFR fusion (Arabidopsis thaliana)
Setting: methotrexate growth selection, single substitutions
Parent: PYL1, truncated, DHFR fusion (Arabidopsis thaliana); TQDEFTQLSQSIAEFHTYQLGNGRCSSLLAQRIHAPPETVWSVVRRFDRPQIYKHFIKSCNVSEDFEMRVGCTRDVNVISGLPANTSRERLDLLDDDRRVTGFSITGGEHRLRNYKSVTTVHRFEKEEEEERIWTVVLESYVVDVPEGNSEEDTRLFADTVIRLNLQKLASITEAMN
D97F: 31.8%
V136C: 23.9%
E89S: 3.35%
F66R: 21.8%
S27Y: 14.6%
L112Q: 1.03%
R69H: 47.5%

Series 3 — method: aptamer microarray, sandwich; molecule type: DNA with 2'F-ANA; sample: in vitro; concentration: 200 nM; with: Cy3 exosite-II aptamer, 400 nM; direction: higher = stronger binding; quantity: mean fluorescence intensity; strand: GGTTGGTGTGGTTGG
Target: Prothrombin, mature alpha-thrombin (F2, Homo sapiens, UniProt P00734)
Setting: whole 15-mer aptamer, many near background
2'F-ANA at 6 9 11 13 14 15: 136 a.u.
2'F-ANA at 1 2 4 5 7 8 9 12 14: 44.4 a.u.
2'F-ANA at 2 4 9 13 15: 187 a.u.
2'F-ANA at 2 3 4 8 9 11 12 13 14 15: 276 a.u.
2'F-ANA at 1 2 5 11 12 13 14 15: 51 a.u.
2'F-ANA at 1 2 3 4 5 6 11 12 13 14 15: 56.1 a.u.
2'F-ANA at 1 2 3 7 9 10 11 12 13 14 15: 53.3 a.u.
2'F-ANA at 4 8 9 11 13 14 15: 74.4 a.u.
2'F-ANA at 1 4 5 7 8 12 13 14: 47.6 a.u.
2'F-ANA at 2 3 4 7 8 9 13 14 15: 257 a.u.
2'F-ANA at 2 3 5 6 7 8 10 15: 50.6 a.u.
2'F-ANA at 4 5 6 7 8 9 10 12: 79.3 a.u.
2'F-ANA at 2 3 4 5 6 8 9 11 12 13 14: 58.6 a.u.
2'F-ANA at 3 4 5 7 9 10 12 13 15: 58.9 a.u.

Single results of other studies
PhoQ, residues 284 288 289 292 302 303 SMMNNA  fold induction (PhoP, residues 12 14 15 18 19 IQFRS (Escherichia coli, UniProt P23836); Sort-seq, item: YFP reporter; E. coli; PhoQ-PhoP variant library, with: 10 µM Mg2+; baseline: high Mg2+ state, higher = stronger signaling): 14.2

A few entries again (series 3):
2'F-ANA at 1 2 5 11 12 13 14 15: 51 a.u.
2'F-ANA at 1 2 3 4 5 6 11 12 13 14 15: 56.1 a.u.
2'F-ANA at 1 2 3 7 9 10 11 12 13 14 15: 53.3 a.u.
2'F-ANA at 4 8 9 11 13 14 15: 74.4 a.u.
2'F-ANA at 1 4 5 7 8 12 13 14: 47.6 a.u.
2'F-ANA at 2 3 4 7 8 9 13 14 15: 257 a.u.
